# Experimental data gathered from unrelated publications.
# A part holds a random share of what one study measured.

# Sample 1 — method: RNA Bind-n-Seq; form: RNA; medium: in vitro; concentration: 365 nM; reference: no-protein control; reading: higher = stronger binding
# Target: RNA binding protein fox-1 homolog 2, RRM domain, GST-SBP tag (RBFOX2, Homo sapiens, UniProt O43251-10, residues 100-194)
# Setting: natural RNA segment, single round, ends assumed
# Shared flanks, not repeated: GGGAGUUCUACAGUCCGACGAUC … UGGAAUUCUCGGGUGCCAA
# Target sequence (chain): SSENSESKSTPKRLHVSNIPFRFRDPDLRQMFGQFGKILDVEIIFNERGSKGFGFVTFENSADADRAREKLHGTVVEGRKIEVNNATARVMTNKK
Strand,RBNS enrichment (R)
CACUCUUCUGACUUGGUUUCUCCAAAUGGGAGGAGACCCAGCUCUGGACAGAAAGGGGACCCGACUGCUUUGGACCUAGAUGGCCUAUUGCGGCUGGAGGAUCCUGAGGA,0.29
GUCCCCAAGCUUUCAGGCAGGCACUGAAACGCACCGAACUUCCACGCUCUGCUGGUCAGUGGCGGCUGUCCCCUCCCCAGCCCAGCCGCCCAGCCACAUGUGUCUGCCUG,0.465
UUGAUGGUGAGAGCAGCGGGAGGUUUGAGGUGUACUCAUUGCAGUCCACUUUGGUCUGUAAGUAGGAUGCUUACGAGAAAUCAGUGAAGGUAAGCAGGGCUGCCACUGUG,0.586
UUUUCCCUUCCAAAAAUUGUCAACUGACUGAGGACAAAGAGAAAGCACCUCCCAGAAAGCUGUGAGCGUGGUUUGGUUCAGAACUCCAGCACCCUGUGCCAGGCACUGAC,0.352
CCUCAGAGCCAGCCAUUGCUGGUGUCUGGAGUCUCCCAGACCACUCACUGCUUCUUGCCAGUUAUGACUGUCAUUCCCUUCGCACCAGCUGUACCACUCCCAGAGGUCUG,0.472
UUUUUGUAUUCUGAUUGCCACGUUAAUCUGUAAUCGUUAAGUACCCAUGAAAGAAUGUGUUUCAGUAUCAGUGCUUUUUUGGUACUUUAACAAGUAUUGUAGGCACGGUG,0.46
GAAUGAUGGUGUUUAUUGCAAAUGCACAAUCUUUUUCCCAUUGAAAUGUCAUCACACUGGAAAUUGUACUAUAUGUAAAAAAAAAAAAAAGUAUAGUUUUAUAUUUGAAA,0.908
UACAAAUCCUGCUCUGGUCUCUGGCCCCACAGAGGUGUAAGAUCAUUAAGAAGUAGAAGGCACUAGCUUCAAAGAGUGAGACAUUCAGGGCCUUUUCAGCAUUGGCCCAC,0.322

# Sample 2 — method: protein binding microarray; form: double-stranded DNA, one strand shown; medium: in vitro; concentration: not given; reference: not given; reading: higher = stronger binding
# Target: Histone acetyltransferase KAT6A, winged helix 1, GST fusion (KAT6A, Homo sapiens, UniProt Q92794, residues 1-85)
# Setting: 8-mer, flanks averaged, mean of 2 arrays, mostly near background
# Construct (chain): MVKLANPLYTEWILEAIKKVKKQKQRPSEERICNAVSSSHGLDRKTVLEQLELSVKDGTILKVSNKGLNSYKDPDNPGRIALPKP
Strand,E-score
AGGCTCTG,-0.186
ATGGCGTA,0.158
CATAGGCG,0.2
TGCGAGAA,-0.202
CGGACATA,0.213
GCAAACCC,0.103
GTATCGAA,0.0275
AATGCTCA,-0.265
CTTGTAGC,-0.0621
AGCCCCAT,-0.122
TAAGTTAA,-0.226
CTATCTCC,-0.139
GCTAGCTA,0.0263
AGTTGACG,-0.0996
AGCCATAG,-0.11
CGCAAATC,0.206
ACGCGTGA,0.212

# Sample 3 — method: aptamer microarray, sandwich; form: DNA with 2'F-ANA; medium: in vitro; concentration: 200 nM; added: Cy3 exosite-II aptamer, 400 nM; reading: higher = stronger binding; strand: GGTTGGTGTGGTTGG
# Target: Prothrombin, mature alpha-thrombin (F2, Homo sapiens, UniProt P00734)
# Setting: whole 15-mer aptamer, many near background
Modification,mean fluorescence intensity [a.u.]
2'F-ANA at 1 2 4 9 11 15,93.3
2'F-ANA at 2 3 4 5,114
2'F-ANA at 2 5 6 8 9 10 12 13 14 15,46.2
2'F-ANA at 2 4 5 6 7 11 13,214
2'F-ANA at 3 5 6 8 9 11 12 15,168
2'F-ANA at 2 4 10 11 12 13 15,106
2'F-ANA at 2 3 5 8 10 15,61.9
2'F-ANA at 1 3 6 7 8 9 12 14,131
2'F-ANA at 2 4 5 6 7 8 10 15,81.7
2'F-ANA at 1 5 8 12 15,131
2'F-ANA at 7 11,577
2'F-ANA at 1 3 4 5 6 7 9 14,45.6
2'F-ANA at 2 3 4 5 6 7 8 10 13 15,164
2'F-ANA at 1 2 7 10 11 13 14,45.3
2'F-ANA at 1 4 5 6 7 8 9 12 13,77.7
2'F-ANA at 2 4 6 7 9 12 13 14 15,106
2'F-ANA at 2 3 5 6 7 9 13 14,88.3
2'F-ANA at 2 4 5 6 7 8 9 14,48.7

# Sample 4 — method: RNA Bind-n-Seq; form: RNA; medium: in vitro; concentration: not given; reference: input RNA pool; reading: higher = stronger binding
# Target: RING finger protein unkempt homolog, zinc fingers 1-6, GST-SBP tag (UNK, Homo sapiens, UniProt Q9C0B0, residues 30-357)
# UniProt Q9C0B0, sequence (30-357, looked up): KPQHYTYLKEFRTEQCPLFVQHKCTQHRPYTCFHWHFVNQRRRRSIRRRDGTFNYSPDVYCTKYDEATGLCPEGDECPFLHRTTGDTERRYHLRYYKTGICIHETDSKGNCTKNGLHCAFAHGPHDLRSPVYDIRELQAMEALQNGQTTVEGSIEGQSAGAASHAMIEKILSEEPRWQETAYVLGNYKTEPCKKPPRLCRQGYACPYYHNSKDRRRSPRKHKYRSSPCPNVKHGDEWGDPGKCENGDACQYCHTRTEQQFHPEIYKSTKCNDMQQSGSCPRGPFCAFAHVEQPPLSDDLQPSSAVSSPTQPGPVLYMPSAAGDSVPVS
# Setting: RNA with constant flanks, human-mouse chimeric sites, ends assumed
# Shared flanks, not repeated: GGGAGUUCUACAGUCCGACGAUC … CAACAGAGGAUUGAGCAUCA
Strand,bound/input enrichment [ratio]
AUCAAAUACUUUGGGGACAUCAUUAGUGUGGGACAGAGACUGUUGCAAGGGGCCCGGAUCUUAGGGAUUCCAGUUAUCAUAACGGAACAAUACCCUAAAGGACUUGGCAGCACCGUUCAA,0.22
UCCCAAAUUAUAAGGCAAGAAGGAGCCUUGAGACAAACACUCCACACACAGGGAAGGCGAUAACAUUGUACAUUGGUUUACAUUUUUUCCCCCUGUGUUUUCUAGGGGAGGUCAUAGUGC,0.486
ACUCUUGACUCUUUCCAUCCUCUUCCUUUCCCUCUUGAUAUUCAAGGCCAUGAAUCCCAAAAUAACAGUCUUAGUGGCUAGCACCCACCCAAACUGAGAAUAAAUCCACCCCAGUGUCUC,0.502
CUCGGCACCGGCACGCUUUACAUCGCGGAGAGCCGCCUGUCCUGGUUAGAUGGUUCGGGAUUAGGAUUCUCACUGGAAUACCCCACCAUUAGUUUACAUGCAUUAUCCAGGGACCGAAAC,3.35
CUGAGGAAUACCACUGAGAGACCUUAAAAGAAUCAUUUGAGGGCUCUGUUCGUGCAAGAAUAGUCACUGAUCGGGAAAACUGGGUCCCCAAAGGGUUUGGUUUUGUAGACUUUAAUAGUG,0.671
UUUGUUUGUAACUUAUCUGUAAAAGGUGUUUCUCCCUACUGUCAAAAAAAUAUGCAUGUAUAGUAAUUAGGACUUCAUUCCUCCAUGUUUUCUUCCCUUAUCUUACUGUCAUUGUCCUUA,1.03
CGGAGCCCUCCUCUCCCACAGGCCCAAGAUAUAACCCACCAGUGCCUUUUGUCUUCCCGUUAGCUUUGUCAAUCACGCCUGUCCUCUCACGCCCACACUCCCCAGCCAAAGUGGGGAGGG,8.9
UCGGAUGCUGUGCUGGGUCACUUUUCAUAUCCAGAUCCUUCCCAGUGGACAGAUGAAGAACUGGGAAUCCCUCCUGAUGACGAGGACUGACACUGUAGACUCAGCCUACGAGUAGGAGCA,0.232

# Some of these lines once more (sample 1):
Strand,RBNS enrichment (R)
GAAUGAUGGUGUUUAUUGCAAAUGCACAAUCUUUUUCCCAUUGAAAUGUCAUCACACUGGAAAUUGUACUAUAUGUAAAAAAAAAAAAAAGUAUAGUUUUAUAUUUGAAA,0.908
UACAAAUCCUGCUCUGGUCUCUGGCCCCACAGAGGUGUAAGAUCAUUAAGAAGUAGAAGGCACUAGCUUCAAAGAGUGAGACAUUCAGGGCCUUUUCAGCAUUGGCCCAC,0.322
GUCCCCAAGCUUUCAGGCAGGCACUGAAACGCACCGAACUUCCACGCUCUGCUGGUCAGUGGCGGCUGUCCCCUCCCCAGCCCAGCCGCCCAGCCACAUGUGUCUGCCUG,0.465
